# Published values pooled from the literature.
# Every numbered part comes from another study and shows a few of its results, in no order.

# Series 1 — technique: protein binding microarray; form: double-stranded DNA, one strand shown; medium: in vitro; tested at: not given; relative to: not given; direction: higher = stronger binding
# Target: Histone acetyltransferase KAT6A, winged helix 1, GST fusion (KAT6A, Homo sapiens, UniProt Q92794, residues 1-85)
# Notes: 8-mer, flanks averaged, mean of 2 arrays, mostly near background
# Construct (chain): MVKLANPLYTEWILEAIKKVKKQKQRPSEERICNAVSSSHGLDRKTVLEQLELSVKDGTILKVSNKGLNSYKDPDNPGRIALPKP
Sequence,E-score
GCTATTAA,-0.0567
CTCCCCAC,-0.191
ACACTCTG,-0.183
GTCACTTA,-0.0905
CAATCTCC,0.056
CTTCCGTA,0.187
GAAGGGGA,-0.139
ACGGCCGC,0.467
AATTGCCG,0.332
TAGCCCGA,0.052
GAATCGTA,-0.0614

# Series 2 — technique: competition protein-binding microarray; form: double-stranded DNA, one strand shown; medium: in vitro; tested at: 2 µM; together with: Pho4 competitor, 0.05 µM; direction: higher = stronger binding; all sequences stand within: … GTCTTGATTCGCTTGACGCTGCTG
# Target: Centromere-binding protein 1, full length, His-tagged (CBF1, Saccharomyces cerevisiae, UniProt P17106, residues 1-351)
# Chain of UniProt P17106 (whole entry, looked up): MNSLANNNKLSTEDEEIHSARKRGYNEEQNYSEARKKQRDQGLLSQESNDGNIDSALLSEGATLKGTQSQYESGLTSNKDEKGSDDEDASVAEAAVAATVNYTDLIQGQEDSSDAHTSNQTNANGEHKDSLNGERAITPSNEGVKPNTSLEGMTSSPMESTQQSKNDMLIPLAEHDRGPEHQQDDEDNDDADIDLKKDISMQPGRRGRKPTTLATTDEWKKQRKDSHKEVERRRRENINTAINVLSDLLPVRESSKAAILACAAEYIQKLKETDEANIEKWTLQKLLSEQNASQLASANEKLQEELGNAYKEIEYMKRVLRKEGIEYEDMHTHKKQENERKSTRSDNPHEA
# Notes: whole 60-bp probe, lowest competitor level
Sequence,fluorescence intensity
GGCAAGGGGGGGGATGACACGGGCGGCTCTGGTTGG,161 a.u.
CAGCGAGAACATCACCACGGGCTATATAAATGGAAA,88.5 a.u.
CTAACGAAGGTTTTACACGTGTTTTACAAGCCAAGT,1440 a.u.
CTTTCCCGATCTTGCTGCGTGGGTGTAGCACATTTG,75.2 a.u.
CTTTCCCGATCTTGCATAGTGGGTGTAGCACATTTG,63.3 a.u.
GCCGGACCAGCTTGGCCCGTGGAATTGTCTATATTG,45.6 a.u.
CTTTTAACTTGCCTGCATGTGTGGAGTTACAAATTA,88.9 a.u.
CTTTCCCGATCTTGTTTAGTGGGTGTAGCACATTTG,79.4 a.u.
AAATTACTAAGTTGCAGCGTGGGTGACGCCGTATGA,71.7 a.u.
AAAGCGGTAATTTGTTCAGTGGGTGCAGATATCTAT,90.6 a.u.
ATCAGATCAAACTGGCACGTGCCAGATTTGGTTTAG,3560 a.u.

# Series 3 — technique: protein-binding microarray; form: double-stranded DNA, one strand shown; medium: in vitro; tested at: 250 nM; notes: 60-bp whole probe; together with: salmon DNA 0.4 mg/ml; relative to: random background probes; direction: higher = stronger binding; all sequences stand within: GCCTAGCAC … GTCTTGATTCGCTTGACGCTGCTG
# Target: Interferon regulatory factor 5, full length, phosphomimetic (IRF5, Homo sapiens, UniProt Q13568-2, residues 1-514, K96S/S451D/S453D/S456D/S462D)
Sequence,log fluorescence [z-score]
TTAGGTTCCGATTTCGGTTAGTGCTAG,5.94
TCAATTTTGCTTCTAGAACTGTGCTAG,0.862
AACGGTTTCGACTATCGGGACGTGCTA,7.92
TCATTTCTCCCAAGTCTTACTGTGCTA,1.39
GACGGTTCCGACTTTCGGGACGTGCTA,4.97
GACGGACTGGGACCGGGGACGTGCTAG,-0.798
TTAGGTTTCGGGTTTCGGTTCGTGCTA,9.7
TCAGATTTCTTCCCTGTGACTGTGCTA,0.0811
TGTTATTAAAATTTAATGGGGTGCTAG,0.405

# Other studies, line by line
Molecule,target,assay,system,setting,how to read,quantity,result
"PhoQ, residues 284 288 289 292 302 303 SMMNNA","PhoP, residues 12 14 15 18 19 NYFTV (Escherichia coli, UniProt P23836)","Sort-seq, item: YFP reporter",E. coli,"PhoQ-PhoP variant library, together with: 10 µM Mg2+","relative to: high Mg2+ state, higher = stronger signaling",fold induction,7.48

# A few entries again (series 1):
Sequence,E-score
AATTGCCG,0.332
TAGCCCGA,0.052
GAATCGTA,-0.0614
